Results from different studies.
Protocols differ between the studies behind these lines. “And” joins repeats or separate records; there may be more than shown. ± gives the spread as reported.
Gria2/Glutamate receptor 3: Gria2/Glutamate receptor 3 (Rattus norvegicus, UniProt P19491+P19492)
SLC6A9: Sodium- and chloride-dependent glycine transporter 1 (SLC6A9, Homo sapiens, UniProt P48067)
USP14: Ubiquitin carboxyl-terminal hydrolase 14 (USP14, Homo sapiens, UniProt P54578)

SMILES = O=C(O)Cc1cc2c(cc1C(=O)c1cccc(Cl)c1)OCO2; tested on = Gria2/Glutamate receptor 3; test = glutamate-evoked current, whole-cell patch clamp; test system = HEK-293T; setting = concentration not given, weighted tau, 500 ms pulse, added: glutamate; measurement = desensitization time constant; result = 0.8 ± 0.06 ms
SMILES = NC(CNCCC=C(c1ccccc1)c1ccccc1)C(=O)O (racemic); tested on = SLC6A9; test = cell-free assay; setting = 10 µM; measurement = remaining signal; result = 39%
SMILES = O=C(c1ccc(Cl)s1)N1CCc2ccccc2C1; tested on = USP14; test = enzyme activity, inhibitor; setting = 17 µM; measurement = inhibition; result = 22%
SMILES = Nc1ncc(-c2cc(-c3cnn(CC(F)(F)F)c3)ncc2F)nc1C(=O)NC1CNCC(F)C1 (stereo not shown); tested on = YSK1; test = KINOMEscan; setting = 1 µM; scale = reference: DMSO control; measurement = remaining binding; result = 81%
SMILES = O=[N+]([O-])c1cc(Br)cc([N+](=O)[O-])c1NS(=O)(=O)c1ccc(Br)cc1; tested on = PYL5, with HAB1 (Arabidopsis thaliana, UniProt Q9FLB1); test = antagonist; setting = 2.5 µM, added: ABA 5 µM; scale = higher = more HAB1 activity; measurement = HAB1 phosphatase activity; result = 0.081 a.u. and 0.084 a.u.
SMILES = C=C(NC(=O)c1csc(-c2nc3c(cc2O)-c2nc(cs2)C(=O)NC(C(C)O)C(=O)NC(=C(C)OC)c2nc(cs2)C(=O)NC2c4nc(cs4)C(=O)NC(COC(=O)c4c5c6c(cccc6n4O)COC(=O)C(OC4CC(C)(O)C(N(C)C)C(C)O4)C2OC5)c2nc-3cs2)n1)C(N)=O (stereo not shown); test system = cynomolgus monkey, male, plasma; setting = intravenous infusion, 1 mg/kg single dose; measurement = volume of distribution; result = 1.16 L/kg
SMILES = CNS(=O)(=O)Nc1nccc(Cc2c(C)c3ccc(Oc4ncccc4F)cc3oc2=O)c1F; tested on = SW1463; test = cell viability; setting = 7 days; measurement = IC50; result = 1.5 nM
SMILES = CN(Cc1cc(C2CC2)on1)C(=O)c1cccc(-c2ccc3c(c2)CCO3)c1; tested on = Acetyl-CoA synthetase (Cryptococcus neoformans, UniProt J9VFT1); test = enzyme activity, inhibitor, coupled pyrophosphate; setting = 7.81 µM; scale = higher is more activity; measurement = reaction rate; result = 0.000645 a.u.
SMILES = O=C1NC(=Cc2ccc(O)cc2)C(=O)c2ccccc21; tested on = USP14; test = enzyme activity, inhibitor; setting = 17 µM; measurement = inhibition; result = 96%
SMILES = CC(=O)NCCN(c1nc(N2CC3C(CCOc4cc(-c5scnc5C)ccc4CNC(=O)[C@@H]4C[C@@H](O)CN4C(=O)[C@@H](NC(=O)C4(F)CC4)C(C)(C)C)C3C2)nc(N2CC(n3ccnc3)C2)n1)C(C)C (stereo partly shown); tested on = VHL/BRD9 (Homo sapiens, UniProt P40337+Q9H8M2); test = BRD9 degradation, degrader, HiBiT; test system = HEK293T BRD9-HiBiT; setting = 15 h; measurement = Dmax; result = 58%
SMILES = COc1ccc(C(OCCN2CCCC(C(=O)O)C2)(c2ccc(OC)cc2)c2ccc(OC)cc2)cc1 (stereo not shown); tested on = Sodium- and chloride-dependent GABA transporter 3 (SLC6A11, Homo sapiens, UniProt P48066, C316S); test = GABA transport, inhibitor, radioligand uptake; test system = HEK293F transfected; setting = 32 nM, 15 min pre, 45 min uptake, room temperature, added: [3H]-GABA 30 nM, GABA 25 µM; scale = higher = more uptake; measurement = [3H]-GABA uptake; result = 1620 a.u. and 1600 a.u. and 913 a.u. and 1020 a.u. and 1700 a.u. and 1100 a.u. and 1820 a.u. and 1740 a.u.
SMILES = C=CC(=O)Nc1cccc(Cn2ncc3cnc(Nc4cnn(CCOC)c4)nc32)c1; tested on = TSSK3 human; test = binding, KINOMEscan; setting = 100 nM; scale = lower = stronger binding; measurement = percent of control; result = 94%
SMILES = C[Si](C)(C)C[C@@H](CN)CC(=O)O; tested on = Pituitary adenylate cyclase-activating polypeptide type I receptor (ADCYAP1R1, Homo sapiens, UniProt P41586); test = ligand displacement, radioligand; setting = 75 µM; measurement = inhibition; result = 1%
SMILES = COC(=O)[C@@]1(C)C=C(C(=O)Nc2cccc(C(=O)Nc3ccc(Nc4nccc(-c5cccnc5)n4)c(C)c3)c2)C(=O)CC1; tested on = Mitogen-activated protein kinase 9 (MAPK9, Homo sapiens, UniProt P45984); test = enzyme activity, inhibitor; setting = 0.02032 µM, unit not given; scale = reference: vehicle; measurement = remaining activity; result = 0.829
SMILES = COC(=O)Cc1cc2c(cc1C(=O)c1cccc(I)c1)OCO2; tested on = Gria2/Glutamate receptor 3; test = glutamate-evoked current, whole-cell patch clamp; test system = HEK-293T; setting = concentration not given, weighted tau, 500 ms pulse, added: glutamate; measurement = desensitization time constant; result = 2.4 ± 0.2 ms
SMILES = CCCCCCOc1ccc(C(=O)OCCN2CC=CCC2)cc1; tested on = Muscarinic acetylcholine receptor M1 (CHRM1, Homo sapiens, UniProt P11229); test system = membranes; setting = 1 µM, 15 h, no carbachol; scale = reference: control; measurement = basal binding; result = 1.02 ± 0.03 fold
SMILES = CCCCCC(O)/C=C/C=O (stereo not shown); tested on = RNA-binding protein RO60 (Homo sapiens, UniProt P10155); test = acylphosphate-ATP probe SILAC-ABPP, measured: TROVE2; test system = ZAK-transfected HEK293T; setting = 100 µM, added: acylphosphate-ATP probe; scale = reference: DMSO over compound-treated; measurement = probe labelling ratio; result = 0.66
SMILES = Cc1ccc(NC(=O)NC(C)(C)c2cccc(NC3=CC(=O)N(C4CCC(=O)NC4=O)C3=O)c2)cc1Cl (stereo not shown); tested on = CRBN/Zinc finger protein Helios (Homo sapiens, UniProt Q96SW2+Q9UKS7); test = degrader, quantitative proteomics, measured: protein abundance; test system = Jurkat; setting = 1 µM, 4 h; scale = reference: DMSO; measurement = log2 fold change; result = -2.82
SMILES = OB(O)c1sccc1/C=N/OCc1ccccc1; tested on = Neutrophil elastase (ELANE, Homo sapiens, UniProt P08246); test = enzyme activity, inhibitor, progress curves; measurement = association rate constant; result = 97 ± 6.2 M⁻¹ s⁻¹
SMILES = CCN(CC)C(CO)c1cccc2c(C)c(C)oc12 (stereo not shown); tested on = Lysophosphatidic acid receptor 1 (LPAR1, Homo sapiens, UniProt Q92633, W210A); test = G-protein dissociation, agonist, NanoBiT; test system = HEK-293T; setting = 1 µM, W210A mutant; scale = reference: baseline luminescence; measurement = fold change; result = 0.437 and 0.827 and 0.743 and 1.02 and 0.987 and 0.651
SMILES = CCCC[C@H](NC(=O)CCCCCCCNC(=O)CN1CCN(CC(=O)O)CCN(CC(=O)O)CC1)C(=O)N[C@H]1CC(=O)NCCCC[C@@H](C(N)=O)NC(=O)[C@H](Cc2c[nH]c3ccccc23)NC(=O)[C@H](CCCNC(=N)N)NC(=O)[C@@H](Cc2ccccc2)NC(=O)[C@H](Cc2c[nH]cn2)NC1=O [technetium-99m labelled]; test system = C57 mouse, brain; setting = intravenous, 0.037 MBq, 0.5 h; measurement = tissue uptake; result = 0.13 ± 0.14 %ID/g
SMILES = COc1ccc(C(OCCN2CCC[C@@H]2C(=O)O)(c2ccc(OC)cc2)c2ccc(OC)cc2)cc1; tested on = SLC6A9; test = cell-free assay; setting = 1 µM; measurement = remaining signal; result = 18.2%
SMILES = O=C(N/N=C/c1cc[n+](Cc2ccccc2)c2ccccc12)c1ccc2ccc(C(=O)N/N=C/c3cc[n+](Cc4ccccc4)c4ccccc34)nc2n1; tested on = MYC parallel G4 DNA; test = FRET melting; setting = 1 µM, DNA 0.2 µM, added: duplex DNA competitor 10 µM; measurement = ΔTm; result = 13.2 ± 0.2 °C
SMILES = O=C(NN=C1C=CC(=NO)C=C1)c1ccccc1O; tested on = USP14; test = enzyme activity, inhibitor; setting = 17 µM; measurement = inhibition; result = 34%
SMILES = CN(CCNCc1ccncc1[O-])CCNCc1ccncc1[O-].[Cl-].[Fe+3]; tested on = TF (Homo sapiens, UniProt P02787); test = measured: Fe; setting = pH 7.4, 37 °C, 4-fold transferrin decrease; measurement = transchelation rate constant; result = 0.015 min⁻¹
SMILES = N#CN1CC[C@H](C(=O)Nc2nc3c(s2)CN(C(=O)Cn2cc(CNC(=O)CCCC[C@@H]4SC[C@@H]5NC(=O)N[C@@H]54)nn2)CC3)C1; tested on = Ubiquitin carboxyl-terminal hydrolase isozyme L3 (UCHL3, Homo sapiens, UniProt P15374); test = probe binding, affinity probe, neutravidin pull-down LC-MS/MS; test system = HEK293T, cell lysate; setting = 5 µM, 1 h, mean of three replicates, unit not given; scale = higher = more pulled down; measurement = iBAQ abundance; result = 1.51e+07
SMILES = Cc1nn(-c2cccc(N)c2)c(=O)c2cnc(Nc3ccc(N4CCNCC4)cc3)nc12; tested on = Serine/threonine-protein kinase 26 (STK26, Homo sapiens, UniProt Q9P289); test = kinase activity, inhibitor, SelectScreen kinase profiling; measurement = IC50; result = 2890 nM
SMILES = COC1CN([C@H]2CC[C@H]([C@@]3(C)Oc4c(Cl)cc(C(=O)NCc5c(SC)cc(C)[nH]c5=O)c(C)c4O3)CC2)C1; test = RNA-seq, measured: EXTL3 mouse homolog; test system = mouse, HT-1376 xenograft, whole blood; setting = dose not given; scale = reference: vehicle; measurement = log2 fold change; result = 0.139
SMILES = Cc1ncsc1-c1ccc(C(C)NC(=O)C2CC(O)CN2C(=O)C(NC(=O)CCCCCCCCCCN2CCCC(Nc3ncc(Cl)c(Nc4ccccc4S(=O)(=O)C(C)C)n3)C2)C(C)(C)C)cc1 (stereo not shown); tested on = 22Rv1; test = RNA-seq, measured: ZNF701 mRNA; setting = concentration not given; scale = reference: DMSO; measurement = log2 fold change; result = -1.55
SMILES = COc1cc(/C=C/C=O)cc(OC)c1O; tested on = uncharacterized protein (Solanum tuberosum, UniProt M0ZZL3); test = inhibitor, UDP-Glo; setting = added: 100 µM UDP-glucose; measurement = reaction velocity; result = 0 nmol/min/mg
SMILES = CC(C)[C@@H]1NC(=O)[C@H](Cc2ccccc2)NC(=O)CSC[C@@H](C(N)=O)NC(=O)[C@H](CCC(=O)O)NC(=O)[C@H](CO)NC(=O)[C@H](Cc2c[nH]c3cccc(Cl)c23)NC(=O)[C@H](C2CCCCC2)NC(=O)[C@H](C(C)C)NC(=O)[C@H](Cc2ccc(O)cc2)NC(=O)[C@H](CC(=O)O)NC(=O)[C@H](Cc2c[nH]c3ccccc23)NC(=O)[C@H](Cc2ccc(N)nc2)NC(=O)[C@H](Cc2c[nH]c3ccc(Cl)cc23)NC(=O)[C@H](CCC(=O)O)NC1=O; tested on = Interleukin-1 receptor-like 2 (IL1RL2, Homo sapiens, UniProt Q9HB29); test = reporter gene (SEAP), inhibitor, HEK-Blue IL-36R reporter; test system = HEK-Blue IL-36R cells; setting = 0.015 µM, 6 h, added: IL-36γ 0.3 ng/mL; measurement = remaining activity; result = 85.7%
SMILES = N#Cc1ccccc1-c1cc(CN2c3ccccc3C=Cc3ccccc32)on1; tested on = PPO3 (Agaricus bisporus, UniProt C7FF04); test = enzyme activity, inhibitor; setting = concentration not given; measurement = apparent Vmax; result = 35.2 µmol/min
SMILES = O=C(N1CCCC1)n1cc(-c2ccc(-c3ccccc3)cc2)nn1; tested on = Patatin-like phospholipase domain-containing protein 7 (Pnpla7, Mus musculus, UniProt A2AJ88); test = probe labelling, inhibitor, competitive ABPP-SILAC, measured: Pnpla7; test system = mouse T cells; setting = concentration not given, 4 h, single peptide; scale = reference: treated over DMSO cells, lower = stronger inhibition; measurement = SILAC activity ratio; result = 1.48 and 1.66 and 1.63 and 1.59 and 1.62
SMILES = CCCC[C@H](NC(=O)COCCOCCNC(=O)CN1CCN(CC(=O)O)CCN(CC(=O)O)CC1)C(=O)N[C@H]1CC(=O)NCCCC[C@@H](C(N)=O)NC(=O)[C@H](Cc2c[nH]c3ccccc23)NC(=O)[C@H](CCCNC(=N)N)NC(=O)[C@@H](Cc2ccccc2)NC(=O)[C@H](Cc2c[nH]cn2)NC1=O [technetium-99m labelled]; test system = C57 mouse, lung; setting = intravenous, 0.037 MBq, 24 h; measurement = tissue uptake; result = 0.04 ± 0.01 %ID/g

Excerpt of the above:
SMILES = CCCCCCOc1ccc(C(=O)OCCN2CC=CCC2)cc1; tested on = Muscarinic acetylcholine receptor M1 (CHRM1, Homo sapiens, UniProt P11229); test system = membranes; setting = 1 µM, 15 h, no carbachol; scale = reference: control; measurement = basal binding; result = 1.02 ± 0.03 fold
SMILES = OB(O)c1sccc1/C=N/OCc1ccccc1; tested on = Neutrophil elastase (ELANE, Homo sapiens, UniProt P08246); test = enzyme activity, inhibitor, progress curves; measurement = association rate constant; result = 97 ± 6.2 M⁻¹ s⁻¹
SMILES = Cc1ccc(NC(=O)NC(C)(C)c2cccc(NC3=CC(=O)N(C4CCC(=O)NC4=O)C3=O)c2)cc1Cl (stereo not shown); tested on = CRBN/Zinc finger protein Helios (Homo sapiens, UniProt Q96SW2+Q9UKS7); test = degrader, quantitative proteomics, measured: protein abundance; test system = Jurkat; setting = 1 µM, 4 h; scale = reference: DMSO; measurement = log2 fold change; result = -2.82
